Experimental data collected from several papers.
Every numbered part comes from another study and shows a few of its results, in no order. Substitutions count along the parent as printed.
Chain of UniProt Q9UBX1 (whole entry, looked up): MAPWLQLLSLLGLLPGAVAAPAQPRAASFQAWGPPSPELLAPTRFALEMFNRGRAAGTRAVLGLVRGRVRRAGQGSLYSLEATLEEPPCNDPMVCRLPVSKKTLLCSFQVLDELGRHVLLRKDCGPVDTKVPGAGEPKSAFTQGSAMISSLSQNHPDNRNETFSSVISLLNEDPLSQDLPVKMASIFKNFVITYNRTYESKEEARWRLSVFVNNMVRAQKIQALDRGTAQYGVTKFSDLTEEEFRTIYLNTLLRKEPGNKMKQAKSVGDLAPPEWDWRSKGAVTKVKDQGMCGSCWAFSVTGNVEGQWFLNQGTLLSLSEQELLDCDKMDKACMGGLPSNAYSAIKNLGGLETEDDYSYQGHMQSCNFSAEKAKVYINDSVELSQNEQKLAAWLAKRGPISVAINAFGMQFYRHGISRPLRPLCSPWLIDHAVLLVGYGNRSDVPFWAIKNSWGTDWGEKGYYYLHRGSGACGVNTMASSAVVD

Sample 1
Target: UBE2D4 UBC core domain (UniProt Q9Y2X8)
Method: yeast two-hybrid
Matrix: yeast
Setting: mostly zero background
Baseline: not given
Direction: higher = stronger interaction
Measurement: lacZ reporter activity
B1: MEX3B RING domain (UniProt Q6ZN04); chain SGLRRKGSRDCSVCFESEVIAALVPCGHNLFCMECANRICEKSEPECPVCHTAVTQAIRIF
B2: RNF187 RING domain (UniProt Q5TA31); chain ALPAGPAEAACALCQRAPREPVRADCGHRFCRACVVRFWAEEDGPFPCPECADDCWQRAVEP
B3: RLIM RING domain (UniProt Q9NVW2); chain SFGENDALKTCSVCITEYTEGNKLRKLPCSHEYHVHCIDRWLSENSTCPICRRAVLASGNRE
B4: TRIM22 RING domain (UniProt Q8IYM9); chain VKVDIEKEVTCPICLELLTEPLSLDCGHSFCQACITAKIKESVIISRGESSCPVCQTRFQPGNLRP
B5: RNF166 RING domain (UniProt Q96A37); chain GDSGLEAQYTCPICLEVYHRPVAIGSCGHTFCGECLQPCLQVPSPLCPLCRLPFDPKKVDK
B6: RNF31 RING domain (UniProt Q96EP0); chain AFLRRLLAQECAVCGWALPHNRMQALTSCECTICPDCFRQHFTIALKEKHITDMVCPACGRPDLTDDTQLL
B7: ANAPC11 RING domain (UniProt Q9NYG5); chain GICRMAFNGCCPDCKVPGDDCPLVWGQCSHCFHMHCILKWLHAQQVQQHCPMCRQEWKFKE
Target sequence (chain): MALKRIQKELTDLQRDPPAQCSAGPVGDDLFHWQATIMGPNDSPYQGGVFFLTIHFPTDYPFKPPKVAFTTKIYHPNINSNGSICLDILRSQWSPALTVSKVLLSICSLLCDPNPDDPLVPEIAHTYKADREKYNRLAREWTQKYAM
AEADPLGRFTCPVCLEVYEKPVQVPCGHVFCSACLQECLKPKKPVCGVCRSALAPGVRAV (RNF114 RING domain (UniProt Q9Y508)): 0
B1 (MEX3B RING domain): 0
B2 (RNF187 RING domain): 0
B3 (RLIM RING domain): 0
B4 (TRIM22 RING domain): 0
B5 (RNF166 RING domain): 0
YPEEVDDDLICHICLQALLDPLDTPCGHTYCTLCLTNFLVEKDFCPMDRKPLVLQHCKK (LNX1 RING domain (UniProt Q8TBB1)): 0
B6 (RNF31 RING domain): 0
LGTKLEAKYLCSACRNVLRRPFQAQCGHRYCSFCLASILSSGPQNCAACVHEGIYEEGIS (TRAF2 RING domain (UniProt Q12933)): 0
B7 (ANAPC11 RING domain): 0

Sample 2
Target: HLA class I histocompatibility antigen, A alpha chain, allele A*25:01 (Homo sapiens, UniProt P04439)
Read-out: peptide-MHC binding
Molecule type: peptide
Concentration: concentration not given
Measurement: binding
YADGGQWYN: inactive
KPKALSEAF: inactive
ETMKPAAMV: inactive
LPVEYLQVP: inactive
KLYLRPWWH: inactive
MPWLDNIVE: inactive
SQLPPACPV: inactive
KSFSAGMFH: inactive
PSYQLPLPM: inactive
MHGHGKHIL: inactive

Sample 3
Target: CCNE1, cyclin fold, Cln2 fusion (human)
Method: yeast growth competition, sequencing
Matrix: yeast
Setting: strong parent motif
Baseline: not given
Direction: higher = stronger binding
Measurement: normalised enrichment score
Parent: viral docking peptide; TSVRRALFTGGSD; partner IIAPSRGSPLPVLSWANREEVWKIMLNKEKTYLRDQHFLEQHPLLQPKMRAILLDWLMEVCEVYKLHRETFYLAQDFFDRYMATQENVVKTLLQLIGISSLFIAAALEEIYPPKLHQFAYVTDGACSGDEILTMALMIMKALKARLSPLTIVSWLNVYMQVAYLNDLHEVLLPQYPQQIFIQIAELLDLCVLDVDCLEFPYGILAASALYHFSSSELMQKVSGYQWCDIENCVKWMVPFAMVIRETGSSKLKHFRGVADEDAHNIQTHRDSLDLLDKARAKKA
TSVRRAMFTGGSD [L7M]: 0.313
TSVRHALFTGGSD [R5H]: 0.424
TSVFRALFTGGSD [R4F]: 1.21
TSVRRALFHGGSD [T9H]: 5.7
TSFRRALFTGGSD [V3F]: 2.94
TSVCRALFTGGSD [R4C]: 5.35
TSVRRALTTGGSD [F8T]: -0.051
TSVRRALFTGGMD [S12M]: 5.25
TTVRRALFTGGSD [S2T]: 5.78
TSVRRSLFTGGSD [A6S]: 3.4
TQVRRALFTGGSD [S2Q]: 4.7
TSVRRALFTGGRD [S12R]: 4.76
TSVRRAVFTGGSD [L7V]: 0.103
TSVRRALFTYGSD [G10Y]: 4.59
TSVRRAFFTGGSD [L7F]: 0.0758
TSVRRALFTEGSD [G10E]: 6.73
TSVRRAPFTGGSD [L7P]: -0.227
TSVRLALFTGGSD [R5L]: -0.108
TSVRRALFTGSSD [G11S]: 5.74
TAVRRALFTGGSD [S2A]: 3.75
TSVRRALFIGGSD [T9I]: 5.23

Other studies, line by line
B8: cystatin C; sequence looked up; chain SSPGKPPRLVGGPMDASVEEEGVRRALDFAVGEYNKASNDMYHSRALQVVRARKQIVAGVNYFLDVELGRTTCTKTQPNLDNCPFHDQPHLKRKAFCSFQIYAVPWQGTMTLSKSTCQDA
B8 (cystatin C)  inhibition (Cathepsin F (Homo sapiens, UniProt Q9UBX1); enzyme activity, inhibitor; 10 µM): 89%
